Measured values pooled from the literature.
Every numbered part comes from another study and shows a few of its results, in no order.
UniProt Q9NRH2, sequence (whole entry, looked up): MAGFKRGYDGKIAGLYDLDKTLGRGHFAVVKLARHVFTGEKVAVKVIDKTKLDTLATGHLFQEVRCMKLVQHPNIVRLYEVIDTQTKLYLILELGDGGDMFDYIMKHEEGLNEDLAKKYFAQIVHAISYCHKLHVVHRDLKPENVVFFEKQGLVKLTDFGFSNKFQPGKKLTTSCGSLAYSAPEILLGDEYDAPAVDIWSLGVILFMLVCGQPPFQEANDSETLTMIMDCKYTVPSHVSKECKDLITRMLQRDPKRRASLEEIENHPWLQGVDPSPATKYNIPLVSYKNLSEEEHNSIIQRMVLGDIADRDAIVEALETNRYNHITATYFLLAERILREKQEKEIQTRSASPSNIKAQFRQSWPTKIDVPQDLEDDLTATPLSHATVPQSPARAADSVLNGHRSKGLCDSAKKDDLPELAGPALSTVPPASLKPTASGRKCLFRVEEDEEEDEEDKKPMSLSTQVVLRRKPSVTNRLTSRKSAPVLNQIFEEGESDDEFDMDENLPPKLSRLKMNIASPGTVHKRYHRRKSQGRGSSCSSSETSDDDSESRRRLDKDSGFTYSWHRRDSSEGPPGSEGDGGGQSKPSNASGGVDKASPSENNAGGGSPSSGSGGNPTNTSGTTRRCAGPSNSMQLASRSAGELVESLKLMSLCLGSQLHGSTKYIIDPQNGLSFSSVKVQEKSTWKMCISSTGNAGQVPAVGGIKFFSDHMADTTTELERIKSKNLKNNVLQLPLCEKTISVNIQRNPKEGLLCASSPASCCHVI
UniProt Q86Z02, sequence (whole entry, looked up): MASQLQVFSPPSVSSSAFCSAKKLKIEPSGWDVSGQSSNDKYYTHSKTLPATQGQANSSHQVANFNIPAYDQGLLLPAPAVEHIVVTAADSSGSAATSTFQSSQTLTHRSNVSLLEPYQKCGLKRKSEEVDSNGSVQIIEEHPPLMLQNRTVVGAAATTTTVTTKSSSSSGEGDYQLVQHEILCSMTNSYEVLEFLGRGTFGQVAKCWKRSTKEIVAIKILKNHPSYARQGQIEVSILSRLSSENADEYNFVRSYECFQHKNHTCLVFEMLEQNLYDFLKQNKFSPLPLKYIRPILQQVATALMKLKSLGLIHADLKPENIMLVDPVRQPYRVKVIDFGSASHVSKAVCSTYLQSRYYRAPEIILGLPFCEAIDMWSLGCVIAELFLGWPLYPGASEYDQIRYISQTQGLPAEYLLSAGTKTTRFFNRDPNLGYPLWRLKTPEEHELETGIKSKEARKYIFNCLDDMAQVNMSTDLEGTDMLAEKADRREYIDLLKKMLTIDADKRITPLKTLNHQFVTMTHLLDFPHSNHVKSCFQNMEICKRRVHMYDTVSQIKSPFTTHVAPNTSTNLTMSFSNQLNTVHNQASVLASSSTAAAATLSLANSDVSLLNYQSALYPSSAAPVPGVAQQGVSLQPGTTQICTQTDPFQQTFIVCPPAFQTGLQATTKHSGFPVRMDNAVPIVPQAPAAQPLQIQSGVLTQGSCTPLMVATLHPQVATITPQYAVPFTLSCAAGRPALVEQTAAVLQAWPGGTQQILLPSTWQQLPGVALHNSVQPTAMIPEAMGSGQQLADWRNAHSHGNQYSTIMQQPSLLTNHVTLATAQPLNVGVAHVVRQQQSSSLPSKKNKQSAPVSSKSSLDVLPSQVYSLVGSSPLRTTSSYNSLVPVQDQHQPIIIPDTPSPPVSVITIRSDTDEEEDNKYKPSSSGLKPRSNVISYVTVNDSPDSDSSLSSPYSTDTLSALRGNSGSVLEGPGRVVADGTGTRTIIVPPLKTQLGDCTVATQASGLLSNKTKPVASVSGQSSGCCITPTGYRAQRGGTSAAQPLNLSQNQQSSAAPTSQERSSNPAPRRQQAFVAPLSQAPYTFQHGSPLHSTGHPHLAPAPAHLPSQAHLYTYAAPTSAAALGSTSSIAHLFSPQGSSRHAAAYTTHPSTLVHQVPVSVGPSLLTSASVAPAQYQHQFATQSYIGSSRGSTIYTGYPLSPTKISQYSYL
UniProt O15218, sequence (whole entry, looked up): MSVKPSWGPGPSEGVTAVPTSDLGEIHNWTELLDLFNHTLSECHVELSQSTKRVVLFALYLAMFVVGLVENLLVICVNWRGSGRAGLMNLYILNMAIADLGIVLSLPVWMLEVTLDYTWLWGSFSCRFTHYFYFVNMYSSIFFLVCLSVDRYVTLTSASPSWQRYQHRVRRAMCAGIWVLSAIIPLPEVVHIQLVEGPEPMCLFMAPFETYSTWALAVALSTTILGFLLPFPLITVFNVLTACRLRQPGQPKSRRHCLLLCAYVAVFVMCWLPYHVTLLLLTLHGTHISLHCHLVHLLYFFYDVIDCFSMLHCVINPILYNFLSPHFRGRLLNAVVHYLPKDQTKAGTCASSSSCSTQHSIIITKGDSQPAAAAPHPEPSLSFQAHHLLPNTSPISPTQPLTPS
UniProt Q9Y5S2, sequence (whole entry, looked up): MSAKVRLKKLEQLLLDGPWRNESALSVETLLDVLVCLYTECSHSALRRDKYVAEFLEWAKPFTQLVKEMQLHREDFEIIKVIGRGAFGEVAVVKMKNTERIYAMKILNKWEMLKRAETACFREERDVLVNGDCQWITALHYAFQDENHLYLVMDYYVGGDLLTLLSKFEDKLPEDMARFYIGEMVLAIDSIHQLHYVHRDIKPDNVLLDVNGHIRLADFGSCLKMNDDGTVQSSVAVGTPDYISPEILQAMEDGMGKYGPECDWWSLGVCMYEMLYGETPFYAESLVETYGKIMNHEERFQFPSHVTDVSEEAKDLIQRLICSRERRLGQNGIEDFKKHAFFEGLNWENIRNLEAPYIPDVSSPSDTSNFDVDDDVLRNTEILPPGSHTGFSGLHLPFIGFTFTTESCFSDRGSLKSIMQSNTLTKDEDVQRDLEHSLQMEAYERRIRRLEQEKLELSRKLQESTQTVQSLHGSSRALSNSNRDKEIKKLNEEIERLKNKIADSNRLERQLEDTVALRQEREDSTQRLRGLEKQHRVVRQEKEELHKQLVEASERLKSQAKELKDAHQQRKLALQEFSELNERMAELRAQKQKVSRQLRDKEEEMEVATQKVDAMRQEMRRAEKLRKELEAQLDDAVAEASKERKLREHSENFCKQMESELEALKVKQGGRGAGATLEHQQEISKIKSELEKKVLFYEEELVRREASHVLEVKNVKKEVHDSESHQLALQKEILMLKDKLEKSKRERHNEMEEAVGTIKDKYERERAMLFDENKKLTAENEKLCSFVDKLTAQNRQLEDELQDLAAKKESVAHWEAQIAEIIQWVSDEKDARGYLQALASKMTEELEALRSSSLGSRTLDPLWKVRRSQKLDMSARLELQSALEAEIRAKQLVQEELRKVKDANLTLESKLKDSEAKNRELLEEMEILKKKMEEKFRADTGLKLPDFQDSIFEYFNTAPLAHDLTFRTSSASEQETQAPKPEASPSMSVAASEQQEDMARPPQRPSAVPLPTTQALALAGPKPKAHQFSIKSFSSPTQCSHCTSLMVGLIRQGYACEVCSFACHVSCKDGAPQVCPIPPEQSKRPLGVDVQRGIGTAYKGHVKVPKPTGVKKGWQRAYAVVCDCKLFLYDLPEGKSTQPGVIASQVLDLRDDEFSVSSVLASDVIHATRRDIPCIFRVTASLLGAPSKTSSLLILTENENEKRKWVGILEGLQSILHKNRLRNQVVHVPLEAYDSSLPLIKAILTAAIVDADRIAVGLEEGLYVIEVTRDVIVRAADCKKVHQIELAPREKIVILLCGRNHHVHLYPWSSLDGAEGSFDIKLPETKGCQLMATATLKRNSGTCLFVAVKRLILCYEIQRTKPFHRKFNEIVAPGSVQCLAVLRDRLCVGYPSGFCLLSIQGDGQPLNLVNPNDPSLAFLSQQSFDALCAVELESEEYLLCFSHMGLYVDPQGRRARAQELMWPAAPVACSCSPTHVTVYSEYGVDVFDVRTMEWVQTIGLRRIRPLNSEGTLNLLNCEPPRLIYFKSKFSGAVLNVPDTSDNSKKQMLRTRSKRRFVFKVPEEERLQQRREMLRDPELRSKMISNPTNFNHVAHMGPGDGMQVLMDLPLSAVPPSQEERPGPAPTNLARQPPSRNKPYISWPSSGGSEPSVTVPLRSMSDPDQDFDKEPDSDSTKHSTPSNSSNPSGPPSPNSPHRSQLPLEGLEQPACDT
UniProt O43613, sequence (whole entry, looked up): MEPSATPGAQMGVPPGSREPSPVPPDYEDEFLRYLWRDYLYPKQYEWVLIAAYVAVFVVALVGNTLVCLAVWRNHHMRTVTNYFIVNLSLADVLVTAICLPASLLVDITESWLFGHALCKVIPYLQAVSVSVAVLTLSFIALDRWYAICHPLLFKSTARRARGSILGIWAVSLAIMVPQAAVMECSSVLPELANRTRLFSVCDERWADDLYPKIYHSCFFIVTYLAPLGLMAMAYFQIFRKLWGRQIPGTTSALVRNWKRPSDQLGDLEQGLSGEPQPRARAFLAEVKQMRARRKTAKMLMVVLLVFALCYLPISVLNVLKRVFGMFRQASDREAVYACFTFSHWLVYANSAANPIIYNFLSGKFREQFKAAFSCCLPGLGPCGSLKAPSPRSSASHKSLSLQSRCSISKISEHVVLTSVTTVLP

Block 1 — technique: competition with immobilised ligand; tested at: 1 µM
Compound: Cc1nc(Cc2cccc(C(F)(F)F)c2)sc1-c1ccc(C(N)=O)nc1
| target | effect on | remaining binding [%] |
| --- | --- | --- |
| RAF proto-oncogene serine/threonine-protein kinase (RAF1, Homo sapiens, UniProt P04049) | cell-free assay | 70 |
| Homeodomain-interacting protein kinase 1 (HIPK1, Homo sapiens, UniProt Q86Z02) | cell-free assay | 92 |
| 1-phosphatidylinositol 3-phosphate 5-kinase (PIKFYVE, Homo sapiens, UniProt Q9Y2I7) | cell-free assay | 75 |
| Bone morphogenetic protein receptor type-1A (BMPR1A, Homo sapiens, UniProt P36894) | binding | 76 |
| Macrophage colony-stimulating factor 1 receptor (CSF1R, Homo sapiens, UniProt P07333) | cell-free assay | 85 |
| Epidermal growth factor receptor (EGFR, Homo sapiens, UniProt P00533, L861Q) | cell-free assay | 100 |
| Tyrosine-protein kinase receptor TYRO3 (TYRO3, Homo sapiens, UniProt Q06418) | cell-free assay | 99 |
| Cytoplasmic tyrosine-protein kinase BMX (BMX, Homo sapiens, UniProt P51813) | cell-free assay | 59 |
| Mitogen-activated protein kinase kinase kinase 7 (MAP3K7, Homo sapiens, UniProt O43318) | cell-free assay | 93 |
| Ribosomal protein S6 kinase alpha-5, C-terminal kinase domain (RPS6KA5, Homo sapiens, UniProt O75582) | cell-free assay | 100 |
| Phosphatidylinositol 4,5-bisphosphate 3-kinase catalytic subunit alpha isoform (PIK3CA, Homo sapiens, UniProt P42336, E545K) | cell-free assay | 77 |
| Proto-oncogene tyrosine-protein kinase receptor Ret (RET, Homo sapiens, UniProt P07949, V804M) | cell-free assay | 88 |
| Serine/threonine-protein kinase MRCK beta (CDC42BPB, Homo sapiens, UniProt Q9Y5S2) | binding | 39 |
| Serine/threonine-protein kinase PLK2 (PLK2, Homo sapiens, UniProt Q9NYY3) | cell-free assay | 82 |
| Tyrosine-protein kinase Srms (SRMS, Homo sapiens, UniProt Q9H3Y6) | cell-free assay | 77 |
| SNF-related serine/threonine-protein kinase (SNRK, Homo sapiens, UniProt Q9NRH2) | cell-free assay | 84 |
| Ephrin type-B receptor 1 (EPHB1, Homo sapiens, UniProt P54762) | cell-free assay | 100 |
| Mitogen-activated protein kinase kinase kinase 11 (MAP3K11, Homo sapiens, UniProt Q16584) | cell-free assay | 100 |
| Serine/threonine-protein kinase PLK3 (PLK3, Homo sapiens, UniProt Q9H4B4) | cell-free assay | 94 |
| Serine/threonine-protein kinase Nek1 (NEK1, Homo sapiens, UniProt Q96PY6) | binding | 41 |
| Serine/threonine-protein kinase MAK (MAK, Homo sapiens, UniProt P20794) | binding | 81 |
| Non-receptor tyrosine-protein kinase TNK1 (TNK1, Homo sapiens, UniProt Q13470) | cell-free assay | 85 |
| Ribosomal protein S6 kinase alpha-3, N-terminal kinase domain (RPS6KA3, Homo sapiens, UniProt P51812) | cell-free assay | 100 |
| Serine/threonine-protein kinase 38-like (STK38L, Homo sapiens, UniProt Q9Y2H1) | binding | 44 |

Block 2 — mode: inhibitor; tested at: 10 µM; reference: control
Target: Diamine acetyltransferase 1 (Homo sapiens, UniProt P21673)
Construct (P21673 1-171): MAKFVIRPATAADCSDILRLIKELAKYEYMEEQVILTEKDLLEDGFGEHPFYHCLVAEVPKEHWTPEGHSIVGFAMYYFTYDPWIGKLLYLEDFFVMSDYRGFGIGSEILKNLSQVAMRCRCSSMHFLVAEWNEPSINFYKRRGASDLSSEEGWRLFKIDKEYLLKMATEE
| SMILES | remaining activity [%] |
| --- | --- |
| COc1ccc(-c2cc(=O)c3c(O)c(OC)c(O)cc3o2)cc1OC | 99.1 |
| Cc1ccc(C(C)C)cc1O | 93 |
| C/C=C(/C)C(=O)O[C@H]1Cc2cc3ccc(=O)oc3cc2OC1(C)C | 121 |
| O=C(O)[C@H](O)c1ccccc1 | 110 |
| C=CC(C)(O)CCC=C(C)CCC=C(C)C (mixture of isomers) | 90.1 |
| CC1(C)CC[C@]2(C(=O)O)CC[C@]3(C)C(=CC[C@@H]4[C@@]5(C)CC[C@@H](O)C(C)(C)[C@@H]5CC[C@]43C)[C@@H]2C1 | 87 |
| CC1=CC[C@H]2C[C@@H]1C2(C)C | 101 |
| C=C(CC[C@@H](C(=O)O)[C@H]1[C@H](O)C[C@@]2(C)C3=CC[C@H]4C(C)(C)C(=O)CC[C@]4(C)C3=CC[C@]12C)C(C)C | 103 |
| C=C(CC[C@@H](C(=O)O)[C@H]1[C@H](O)C[C@@]2(C)C3=C(CC[C@]12C)[C@@]1(C)CC[C@H](OC(C)=O)C(C)(C)[C@@H]1CC3)C(C)C | 99.8 |

Block 3 — Compound: NC(N)=NC(=O)c1nc(Cl)c(N2CCCCCC2)nc1N; effect on: β-arrestin recruitment; mode: agonist; technique: PRESTO-Tango; tested at: 10 µM; reference: untreated
| target | fold over basal |
| --- | --- |
| Succinate receptor 1 (SUCNR1, Homo sapiens, UniProt Q9BXA5) | 1.21 fold |
| Prostaglandin F2-alpha receptor (PTGFR, Homo sapiens, UniProt P43088) | 0.56 |
| G-protein coupled receptor 3 (GPR3, Homo sapiens, UniProt P46089) | 0.83 |
| Neuromedin-K receptor (TACR3, Homo sapiens, UniProt P29371) | 0.99 fold |
| Probable G-protein coupled receptor 21 (GPR21, Homo sapiens, UniProt Q99679) | 1.08 |
| Chemerin-like receptor 1 (CMKLR1, Homo sapiens, UniProt Q99788) | 0.53 |
| C-C chemokine receptor type 6 (CCR6, Homo sapiens, UniProt P51684) | 0.96 |
| ADGRG3 (Homo sapiens, UniProt Q86Y34) | 0.91 |
| G-protein coupled receptor 182 (GPR182, Homo sapiens, UniProt O15218) | 1.19 |
| Mas-related G-protein coupled receptor member G (MRGPRG, Homo sapiens, UniProt Q86SM5) | 0.85 |
| Orexin/Hypocretin receptor type 1 (HCRTR1, Homo sapiens, UniProt O43613) | 1.93 fold |

Block 4 — effect on: enzyme activity; mode: inhibitor; tested at: 10 µM
Target: Calcium/calmodulin-dependent protein kinase type II subunit alpha (CAMK2A, Homo sapiens, UniProt Q9UQM7)
UniProt Q9UQM7, sequence (whole entry, looked up): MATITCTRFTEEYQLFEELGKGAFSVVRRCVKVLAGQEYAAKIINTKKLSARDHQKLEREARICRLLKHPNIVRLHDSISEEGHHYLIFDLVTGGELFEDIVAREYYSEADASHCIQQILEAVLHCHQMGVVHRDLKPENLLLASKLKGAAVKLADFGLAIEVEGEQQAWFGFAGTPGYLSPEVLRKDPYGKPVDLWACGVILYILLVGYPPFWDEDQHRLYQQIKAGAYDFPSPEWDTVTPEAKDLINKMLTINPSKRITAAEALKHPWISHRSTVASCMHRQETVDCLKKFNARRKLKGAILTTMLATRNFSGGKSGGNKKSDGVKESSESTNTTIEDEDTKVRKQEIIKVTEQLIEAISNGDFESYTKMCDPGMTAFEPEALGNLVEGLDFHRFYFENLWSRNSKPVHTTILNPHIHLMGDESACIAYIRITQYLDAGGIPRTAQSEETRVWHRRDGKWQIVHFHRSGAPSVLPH
| Compound | inhibition |
| --- | --- |
| Nc1ncnc2c1ncn2[C@@H]1O[C@H](CO)[C@@H](O)[C@H]1OP(=O)(O)O | -49% |
| Oc1cc(O)c2ccc(-c3ccc(O)c(O)c3)[o+]c2c1 | 3% |
| C1CCC(C(CC2CCCCN2)C2CCCCC2)CC1 (centres unmarked) | -7% |
| C[C@H]1C[C@H]2[C@@H]3CCC4=CC(=O)C=C[C@]4(C)[C@@]3(F)[C@@H](O)C[C@]2(C)[C@@]1(O)C(=O)CO | -5% |
| CCCOc1ccc2c(c1)CC[C@@H]1[C@@H]2CC[C@]2(C)[C@@H](OC)CC[C@@H]12 | 13% |
| C=C1CCCc2c(ccc3c2C(=O)C(=O)c2c(C)coc2-3)/C(C)=C/CCc2c1ccc1c2C(=O)C(=O)c2c(C)coc2-1 | -16% |
| COc1ccc(C2COc3cc(O)ccc3C2)c(O)c1OC (centres unmarked) | -20% |
| CN(C)CCC[C@@]1(c2ccc(F)cc2)OCc2cc(C#N)ccc21 | -12% |
| C=C1C(=O)[C@@]23[C@@H]4OC5O[C@@]2(O)[C@@H](O)[C@@H]2C(C)(C)CC[C@@H](O)[C@]52[C@@H]3CC[C@@H]14 | 1% |

A few entries again (block 1):
| target | effect on | remaining binding [%] |
| --- | --- | --- |
| Proto-oncogene tyrosine-protein kinase receptor Ret (RET, Homo sapiens, UniProt P07949, V804M) | cell-free assay | 88 |
| Serine/threonine-protein kinase MRCK beta (CDC42BPB, Homo sapiens, UniProt Q9Y5S2) | binding | 39 |
| Serine/threonine-protein kinase PLK2 (PLK2, Homo sapiens, UniProt Q9NYY3) | cell-free assay | 82 |
| Tyrosine-protein kinase Srms (SRMS, Homo sapiens, UniProt Q9H3Y6) | cell-free assay | 77 |
